Published values from different studies.
Values joined by “and” are separate records of one study, mostly repeats; a detail may differ. ± gives the spread as reported.

Compound	cell line	test	conditions	how to read	measurement	result
CCC/N=C1\S/C(=C\c2ccc(OC[C@H](O)CO)c(Cl)c2)C(=O)N1c1ccccc1C	human primary astrocytes	single-cell RNA-seq, item: TUBA1B mRNA	concentration not given, 48 h, with: cytokine stimulation	reference: cytokine alone	log2 fold change	0.393
CCCCCCCCCCCCCCCC[N+](C)(C)C	BT-12	cell viability, MTT	10 µM, 72 h		inhibition	91.6%
CC(C)N(C[C@H]1O[C@@H](n2cnc3c(N)ncnc32)[C@H](O)[C@@H]1O)[C@H]1C[C@@H](CCc2nc3cc(C(C)(C)C)ccc3[nH]2)C1	HBL-1		0.1 µM, 120 h		viability	135%
CCn1cc(-c2cc(Cn3ccoc3=N)cc3c2CCN([C@@H](C)c2cc(OC)ccn2)C3=O)c(C(F)(F)F)n1	RS4	cell growth, inhibitor	120 h		EC50	0.0312 µM
CCC(=O)N1CCC(COCC(=O)N2CCN(c3nc(-c4cnc(N)nc4C(F)F)nc(N4CCOC[C@@H]4C)n3)CC2)CC1	A2058	resazurin growth rate inhibition	72 h		GR50	> 5 µM
CCCCCCCCOC(=O)C(=O)CCC(=O)O	HBL-1		0.1 µM, 120 h		viability	117%
COc1cc([C@@H]2c3cc4c(cc3[C@@H](O[C@@H]3O[C@@H]5CO[C@@H](c6cccs6)O[C@H]5[C@H](O)[C@H]3O)[C@H]3COC(=O)[C@H]23)OCO4)cc(OC)c1O	BT-12	cell viability, MTT	10 µM, 72 h		inhibition	89.3%
O=C(/C=C/C=C/C=C/C1CCCCC1)NC1=C[C@@](O)(/C=C/C=C/C=C/C(=O)NC2=C(O)CCC2=O)[C@@H]2O[C@@H]2C1=O	G-402	cell growth, CellTiter-Glo	78 h		GI50	8.28 µM
O=C(O)CNC(=O)C(=O)O	HBL-1		0.1 µM, 120 h		viability	110%
COc1ccc(-c2ccc3ncc4c(c3c2)n(-c2ccc(N3CCNCC3)c(C(F)(F)F)c2)c(=O)n4C)cn1.O=C(O)/C=C\C(=O)O	BT-12	cell viability, MTT	10 µM, 72 h		inhibition	94.3%
O=C(N[C@@H](CSCc1ccc([N+](=O)[O-])cc1)C(=O)NO)c1ccccc1	NCI-H1573	cell viability, MTT	ferroptosis rescue, with: liproxstatin-1	reference: with over without liproxstatin-1	fold shift in potency	36 fold
OCc1ccc(Nc2ccc3c(Nc4cccc(C(F)(F)F)c4)ncnc3c2)cc1	MDA-MB-231		IC50, 24 h		G2/M phase cells	7.71%
O=c1cc(-c2cccc3c2Sc2ccccc2S3)oc(N2CCOCC2)c1	HeLa expressing Ub(G76V)-GFP	Ub(G76V)-GFP degradation, cycloheximide chase	12 µM		inhibition	11%
CN(C)C/C=C/C(=O)Nc1cc2c(Nc3ccc(F)c(Cl)c3)ncnc2cc1O[C@H]1CCOC1	KB-C2 spheroids		3 µM, day 12, single dose		spheroid volume	13 ± 0.8 mm³
O=C(O)CC[C@H](NC(=O)N[C@@H](CCCCNC(=O)CCCCCCC(=O)NCCCC[C@@H](NC(=O)[C@H](CCC(=O)O)NC(=O)[C@H](CCC(=O)O)NC(=O)CCC(=O)NCCCN1CC[S][Tc]2(=[O])[S]CC[N]2CC1)C(=O)O)C(=O)O)C(=O)O (stereo partly shown) [technetium-99m labelled]	LNCaP		25 nM, 1 h, 37 °C		surface-bound activity	4.54 ± 0.15 %AD/mg protein
COc1cc(Oc2ccnc3cc(OC)c(OC)cc23)ccc1NC(=O)NC(C)c1nccs1 (stereo not shown)	hiPSC cardiomyocytes	CellTiter-Glo	concentration not given, 24 h	reference: vehicle	ATP level	97.7%
Cn1cc(-c2ccc(-c3cncc(Cl)c3N3CCC4(CCNC4=O)CC3)cc2)cn1	COLO 205	gene expression, microarray, item: PRKCE mRNA	concentration not given, 2 h	reference: untreated cells	log2 fold change	1.46
CCn1cc(-c2cc(Cn3ccnc3)cc3c2CCN([C@H](c2cc(OC)ccn2)C2CC2)C3=O)c(C(F)(F)F)n1	RPMI-7951	cell growth, inhibitor	120 h		EC50	16 µM
CC[S+]([O-])c1nc(-c2ccccc2)cc(C(F)(F)F)n1 (stereo not shown)	HeLa Kyoto	RelA nuclear import, high content imaging	5.01 µM, 3 h, with: 1 µM PMA, 60 min		cells with nuclear RelA	77.3% and 55.8%
[NH2][Pt]([NH2])([Cl])[Cl]	WiDr	cell growth, sulforhodamine B			GI50	26 ± 4 µM
Nc1n[nH]c2nc(-c3cccc(O)c3)cc(-c3cc4ccccc4nc3N3CCOCC3)c12	WI-38	cell viability, MTT	72 h		EC50	0.294 ± 0.001 µM
COc1ccc(OC)c(-c2nc3ccc(-c4nc5ccc(N6CCN(C)CC6)cc5[nH]4)cc3[nH]2)c1	Hs-578T	SRB	10 µM, 48 h		growth percent	85.5%
Cl.Cl.O=S(=O)(NCCNC/C=C/c1ccc(Br)cc1)c1cccc2cnccc12	HeLa expressing Ub(G76V)-GFP	Ub(G76V)-GFP degradation, cycloheximide chase	12 µM		inhibition	21%

Compound	cell line	test	conditions	how to read	measurement	result
CC/C(=N\NC(=O)NCc1cccc(O)c1)c1ccc(O)c(C)c1O	SK-OV-3	ATP	10 µM, 4 days, 3D U-bottom low-attachment	reference: untreated	relative cell number	247%
CC(=O)Nc1cccc(-n2c(=O)n(C3CC3)c(=O)c3c(Nc4ccc(I)cc4F)n(C)c(=O)c(C)c32)c1	COLO 205	cell viability, resazurin	1.56 nM, 72 h	reference: DMSO	fractional effect	0.85 and 0.793
NC(=O)c1ccc(I)c([N+](=O)[O-])c1	HBL-1		1 µM, 120 h		viability	105%
O=C(C[C@@H](C(F)F)n1ccc(F)n1)N1CCC(O)(Cn2cnc3c(cnn3-c3ccc(F)cc3)c2=O)CC1	CHP-212 resistant	PI staining flow cytometry	0.3 µM, 24 h		cells in S phase	10.7% and 15.2% and 14.7%
COc1cccc2c1C(=O)c1c(O)c3c(c(O)c1C2=O)C[C@@](O)(C(=O)CO)C[C@@H]3O[C@H]1C[C@H](N)[C@H](O)[C@H](C)O1	HepG2	CellTiter-Glo, item: cellular ATP	24 h, distribution mode 1		point of departure	0.0174 µM
CCc1cnc(N2CCC(c3nc(COc4ccc(-n5cnnn5)cc4)cs3)CC2)nc1	HEK-293T	RNA-seq GSEA, item: Hallmark apical junction	concentration not given	direction not given	normalized enrichment score	-1.3
N#Cc1c(NC(=O)c2cccc3ccccc23)sc2c1CCCC2	HeLa expressing Ub(G76V)-GFP	Ub(G76V)-GFP degradation, cycloheximide chase	12 µM		inhibition	29%
C[C@H]1[C@@H](O)O[C@@H]2O[C@@]3(C)CC[C@H]4[C@H](C)CC[C@@H]1[C@@]24OO3	THP-1	annexin V/PI flow cytometry, item: annexin V-/PI-	0.8 µM, 24 h		viable cells	96.7%
CC(C)C[C@@H](C=O)NC(=O)[C@H](CC(C)C)NC(=O)[C@H](CC(C)C)NC(=O)OCc1ccccc1	HeLa expressing Ub(G76V)-GFP	Ub(G76V)-GFP degradation, cycloheximide chase	0.156 µM	reference: DMSO	remaining activity	58.5%
Nc1ncn([C@H]2C[C@H](O)[C@@H](CO)O2)c(=O)n1	HBL-1		0.1 µM, 120 h		viability	77.6%
O=C(NC(NC(=S)Nc1ccc(F)c([N+](=O)[O-])c1)C(Cl)(Cl)Cl)C(c1ccccc1)c1ccccc1 (stereo not shown)	HeLa expressing Ub(G76V)-GFP	Ub(G76V)-GFP degradation, cycloheximide chase	12 µM		inhibition	32%
O=C(/C=C/c1ccc(CN(CCO)CCc2c[nH]c3ccccc23)cc1)NO	HBL-1		0.5 µM, 120 h		viability	0.446%
CN(C)c1ccc(C(=O)NCCCCCCC(=O)NO)cc1	BT-12	cell viability, MTT	10 µM, 72 h		inhibition	91.4%
Nc1ccc2ncnc(NCCc3ccc(Oc4ccccc4)cc3)c2c1	HeLa expressing Ub(G76V)-GFP	Ub(G76V)-GFP degradation, cycloheximide chase	12 µM		inhibition	20%
CC(C)[C@H](C(=O)Nc1ccc(C(=O)NO)cc1)c1ccccc1	HBL-1		1 µM, 120 h		viability	0.708%
COc1cnc2cccc(N3CCc4c(cc(Cn5ccnc5C)cc4-c4cn(C)nc4C(F)(F)F)C3=O)c2c1	HSC-3	cell growth, inhibitor	120 h		EC50	> 30 µM
Nc1ccccc1NC(=O)c1ccc(CNC(=O)OCc2cccnc2)cc1	HBL-1		1 µM, 120 h		viability	4.36%
CC[S+]([O-])c1nc(-c2cccc(OCc3ccccc3)c2)cc(C(F)(F)F)n1 (stereo not shown)	HeLa Kyoto	RelA nuclear import, high content imaging	15.82 µM, 3 h, with: 1 µM PMA, 60 min		cells with nuclear RelA	5.76% and 1.44%
Cn1c(Nc2nc3ccc(C(F)(F)F)cc3s2)nc2cc(C(=O)NCCOCCO)ccc21	SH-SY5Y	RNA-seq, item: CMKLR1 mRNA	5 µM, 5 h	reference: untreated cells	fold change	4.05
Cc1cc(Nc2ncc(Cl)c(Nc3ccccc3S(=O)(=O)C(C)C)n2)c(OC(C)C)cc1C1CCNCC1	CLB-GE	phosphoproteomics LC-MS/MS, item: ATXN1L phosphorylation	200 nM, 60 min	reference: untreated	log2 fold change	-1.85
C=C1CC(C(=O)Nc2cc(C(=O)NC)cc(-c3sccc3CCCCCCCC)c2OC)C1	HEK293 expressing human TREM2/DAP12	agonist, AlphaLISA	5 to 100 µM, average over concentrations	reference: untreated	phospho-Syk level	~2 fold
O=C1NC(=O)c2c1c1c3ccccc3[nH]c1c1[nH]c3cc(Br)ccc3c21	HeLa expressing Ub(G76V)-GFP	Ub(G76V)-GFP degradation, cycloheximide chase	12 µM		inhibition	-6%
COc1cccc2c1C(=O)c1c(O)c3c(c(O)c1C2=O)C[C@@](O)(C(=O)CO)C[C@@H]3O[C@H]1C[C@H](N)[C@@H](O)[C@H](C)O1	BT-12	cell viability, MTT	10 µM, 72 h		inhibition	93.8%

Some of these lines once more:
Compound	cell line	test	conditions	how to read	measurement	result
C[C@H]1[C@@H](O)O[C@@H]2O[C@@]3(C)CC[C@H]4[C@H](C)CC[C@@H]1[C@@]24OO3	THP-1	annexin V/PI flow cytometry, item: annexin V-/PI-	0.8 µM, 24 h		viable cells	96.7%
CCC/N=C1\S/C(=C\c2ccc(OC[C@H](O)CO)c(Cl)c2)C(=O)N1c1ccccc1C	human primary astrocytes	single-cell RNA-seq, item: TUBA1B mRNA	concentration not given, 48 h, with: cytokine stimulation	reference: cytokine alone	log2 fold change	0.393
O=C(O)CC[C@H](NC(=O)N[C@@H](CCCCNC(=O)CCCCCCC(=O)NCCCC[C@@H](NC(=O)[C@H](CCC(=O)O)NC(=O)[C@H](CCC(=O)O)NC(=O)CCC(=O)NCCCN1CC[S][Tc]2(=[O])[S]CC[N]2CC1)C(=O)O)C(=O)O)C(=O)O (stereo partly shown) [technetium-99m labelled]	LNCaP		25 nM, 1 h, 37 °C		surface-bound activity	4.54 ± 0.15 %AD/mg protein
O=C1NC(=O)c2c1c1c3ccccc3[nH]c1c1[nH]c3cc(Br)ccc3c21	HeLa expressing Ub(G76V)-GFP	Ub(G76V)-GFP degradation, cycloheximide chase	12 µM		inhibition	-6%
